Published values gathered from unrelated publications.
Protocols differ between the studies behind these lines. Numbers after ± are the reported error. ≈ marks a conversion by molar mass, not a printed value.

| Structure (SMILES) | tested on | test | system | conditions | scale | quantity | value |
| --- | --- | --- | --- | --- | --- | --- | --- |
| O=C(CCC1CCN(c2cc(NC3CC3)ncn2)CC1)NCc1ccc(F)cc1F | Cedar virus | viral replication | Vero C1008 | – | relative to: CC50 over IC50 | selectivity index | > 137 |
| CC(C)N1CN(C2c3ccccc3CCc3ccccc32)n2cc(C(=O)O)c(=O)c(O)c2C1=O | lymphocytic choriomeningitis virus | – | Armstrong, culture supernatant | concentration not given, pretreatment | – | viral titre | increased |
| O=C(O)CC1C2CCCN3CCCC(CN1S(=O)(=O)c1ccc(Cl)cc1)C23 (stereo not shown) | Vesicular stomatitis virus | viral entry | – | VSV G pseudotyped HIV | – | IC50 | > 200 µM |
| N=C(N)NCCC[C@@H]1NC(=O)[C@H](CCCCNC(=O)CC[C@H](NC(=O)CCOCCOCCOCCOCCNC(=O)CN2CCN(CC(=O)O)CCN(CC(=O)O)CCN(CC(=O)O)CC2)C(=O)NCCCC[C@@H]2NC(=O)[C@@H](Cc3ccccc3)NC(=O)[C@H](CC(=O)O)NC(=O)CNC(=O)[C@H](CCCNC(=N)N)NC2=O)NC(=O)[C@@H](Cc2ccccc2)NC(=O)[C@H](CC(=O)O)NC(=O)CNC1=O [indium-111 labelled] | – | – | female athymic nude mice, liver | intravenous, 3 µCi, 24 h, U-87 MG glioma xenograft | – | tissue uptake | 1.51 ± 0.57 %ID/g |
| CCOC(=O)c1cnn2c1NN=C([N+](=O)[O-])C2(C)O (stereo not shown) | unidentified influenza virus | viral replication | MDCK, H1N1 | 48 h | – | IC50 | 91 µM |
| COC(=O)CCCC1C2CCCN3CCCC(CN1S(=O)(=O)c1ccc(Cl)cc1)C23 (stereo not shown) | Vesicular stomatitis virus | viral entry | – | VSV G pseudotyped HIV | – | IC50 | > 200 µM |
| O=C(Cc1cccs1)N[C@@H]1C(=O)N2C(C(=O)O)=C(CSc3cccc[n+]3[O-])CS[C@H]12 | Mycobacterium tuberculosis | – | H37Rv | non-replicating, with: clavulanate 25 µM | – | MBC | 1.6 µM |
| COc1ccc(NC(=O)CCc2nc(-c3ccc(N4CCCC4)cc3)no2)cc1OC | Cedar virus | viral replication, inhibitor | Vero C1008 | 48 h | – | IC50 | 0.35 µM |
| Clc1ccc(CN2CCCC3=CC4CC(CN5CCCCC45)C32)cc1Cl (stereo not shown) | Vesicular stomatitis virus | G pseudovirus entry | Huh-7 | – | – | EC50 | 15.9 µM |
| COc1ccc(-c2cc(=O)c3c(O)c(OC)c(O)cc3o2)cc1 | Mycobacterium bovis | – | ATCC 27290 | – | – | MIC | 125 µg/mL (≈ 398 µM) |
| CSC(=NNC(=O)c1ccc([N+](=O)[O-])cc1)SC | Mycobacterium | – | Scrofulaceum | – | – | MIC | 100 µg/mL (≈ 350 µM) |
| C=C1C(=O)O[C@H]2C[C@H](C)C(/C=C/C(C)=O)=CC[C@H]12 | Human parainfluenza virus 3 | viral replication | Vero | – | – | EC50 | > 20 µM |
| C=C(C)C1C2OC(=O)C1C1(O)CC3OC34C(=O)OC2C14C (stereo not shown) | Drosophila melanogaster | coated vial bioassay | dieldrin-resistant Rdl A2'S | up to 5000 ppm, adult flies | – | mortality | not toxic |
| CC(C)(C)OC(=O)NCCC[C@H](NC(=O)c1ccc(NCc2ccc3nc(N)nc(N)c3c2Cl)cc1)C(=O)O | Mycobacterium tuberculosis | – | pptT knockdown without ATc | – | – | MIC90 | < 0.2 µM |
| O=C1c2c(ccc(O)c2O)CN1Cc1cccc(Cl)c1F | HIV-1 | viral replication | integrase Y143R mutant, VSV-G pseudotyped | – | – | EC50 | 0.6 ± 0.2 µM |
| CCC1(O)C([N+](=O)[O-])=NNc2nc(SC)nn21 (stereo not shown) | unidentified influenza virus | viral replication | MDCK, H1N1 | 48 h | – | IC50 | 32 µM |
| Cc1nc(=O)c2cc(CN(C)c3cccc(C(=O)Nc4n[nH]c5ccccc45)c3)ccc2[nH]1 | Mycobacterium tuberculosis | – | pptT knockdown without ATc | – | – | MIC50 | 97.6 µM (≈ 42.8 µg/mL) |
| N=C(N)NCCC[C@@H]1NC(=O)[C@H](CCCCNC(=O)CCOCCOCCOCCOCCNC(=O)CN2CCN(CC(=O)O)CCN(CC(=O)O)CCN(CC(=O)O)CC2)NC(=O)[C@@H](Cc2ccccc2)NC(=O)[C@H](CC(=O)O)NC(=O)CNC1=O [indium-111 labelled] | – | – | female athymic nude mice, lungs | intravenous, 3 µCi, 1 h, U-87 MG glioma xenograft | – | tissue uptake | 1.01 ± 0.05 %ID/g |
| OC12CC3CC(C1)CC(NCc1cnc(N4CCCCC4)nc1)(C3)C2 | influenza A virus | viral replication, plaque reduction | A/Switzerland/9715293/2013 H1N1 | – | – | EC50 | 3.4 ± 0.8 µM |
